# Measured values from different studies.
# Lines come from different studies, so protocols differ. Values joined by “and” are separate records of one study, mostly repeats; a detail may differ. Numbers after ± are the reported error.
# Cell line: MCF7
SMILES,assay,setting,how to read,quantity,result
CSC(=S)N/N=C(\C)c1ccc(S(=O)(=O)N2CCC(C)CC2)cc1,annexin V/PI,"concentration not given, 72 h, at IC50",,early apoptotic cells,4.49%
CN(C)CCN1CCN(c2ccc3nc(-c4ccc5nc(-c6ccc(C(F)(F)F)cc6)[nH]c5c4)[nH]c3c2)CC1,SRB,"10 µM, 48 h",,growth percent,9.58%
Cc1c(COc2cc(OCc3cccc(C#N)c3)c(CNC(CO)(CO)CO)cc2Cl)cccc1-c1cccc(OCCCCCC(=O)NO)c1,annexin V-FITC/PI flow cytometry,"10 µM, 48 h, early plus late apoptosis",,apoptotic cells,65.5%
C[C@@H]1CC[C@@H]([C@@](O)(CNCc2ccc(F)cc2)COCc2ccc(F)cc2)[C@H](OCc2ccc(F)cc2)C1,"cell growth or viability, MTT","30 µM, 72 h",,inhibition,99.7%
CC(=O)[O][Pd][c]1cc(C)ccc1N1N=C(C)C(C)(C)C1=O.CC(=O)[O][Pd][c]1cc(C)ccc1N1N=C(C)C(C)(C)C1=O,JC-1 flow cytometry,"25 µM, 24 h",,cells with decreased ΔΨm,52.2 ± 5.01%
CC(C)(C)C12CC(CN3CCN(C(c4ccccc4)c4ccc(Cl)cc4)CC3)(C1)C2 (stereo not shown),"lipid droplet formation, Nile Red staining",72 h,,EC50,16.5 ± 0.56 µM
CC(C)C[C@@H](NC(=O)[C@H](C)NC(=O)CNC(=O)[C@@H](NC=O)C(C)C)C(=O)N[C@@H](C)C(=O)N[C@@H](C(=O)N[C@H](C(=O)N[C@@H](C(=O)N[C@@H](Cc1c[nH]c2ccccc12)C(=O)N[C@H](CC(C)C)C(=O)N[C@@H](Cc1c[nH]c2ccccc12)C(=O)N[C@H](CC(C)C)C(=O)N[C@@H](Cc1c[nH]c2ccccc12)C(=O)N[C@H](CC(C)C)C(=O)N[C@@H](Cc1c[nH]c2ccccc12)C(=O)NCCO)C(C)C)C(C)C)C(C)C,flow cytometry,"100 nM, 48 h",,cells in G1 phase,56.8 ± 2.32%
CSC(=NN=C(C)c1ccc(S(=O)(=O)N2CCC(C)CC2)cc1)N(C)C,flow cytometry,"4.29 µM (IC50), 72 h",,cells in G2/M phase,28.3%
CCC(=CCc1c(O)cc2c(c1O)C(=O)CC(c1ccc(OC)c(O)c1)O2)CC (stereo not shown),"cytotoxicity, MTT","2.51 µM, 48 h",,growth inhibition,4.26%
C[C@@H]1CC[C@@H]([C@@](O)(CNCc2cccc(F)c2)COCc2ccccc2)[C@H](OCc2ccccc2)C1,"cell growth or viability, MTT","30 µM, 72 h",,inhibition,96.8%
CC(=NN=c1sc(C(=O)c2ccccc2)nn1-c1ccccc1)c1ccc(S(=O)(=O)N2CCC(C)CC2)cc1,annexin V/PI,"concentration not given, 72 h, at IC50",,early apoptotic cells,5.86%
CC(=O)[O][Pd][c]1ccccc1-n1nc(C)cc1C.CC(=O)[O][Pd][c]1ccccc1-n1nc(C)cc1C,FLICA flow cytometry,"25 µM, 24 h",,caspase-8 active cells,50.3 ± 2.53%
COCCCCCNc1nc(NCCCCCCN(C)C)c2cc(NC(=O)/C=C/CN(C)C)ccc2n1,CellTiter-Glo,"0.3906 µM, 24 h, unit not given",relative to: DMSO-treated cells,viability,0.9 and 1.03 and 0.997
CCC(=CCc1c(O)cc2c(c1O)C(=O)CC(c1cccc(O)c1)O2)CC (stereo not shown),"cytotoxicity, MTT","108.6 µM, 48 h",,growth inhibition,78.9%
COc1ccc(COC[C@](O)(CNCc2ccccc2)[C@@H]2CC[C@@H](C)C[C@H]2OCc2ccc(OC)cc2)cc1,"cell growth or viability, MTT","30 µM, 72 h",,inhibition,99%
CCC(=CCc1c(O)cc2c(c1O)C(=O)CC(c1ccc(O)cc1)O2)CC (stereo not shown),"cytotoxicity, MTT","13.57 µM, 48 h",,growth inhibition,41.4%
COc1ccc(CNC[C@@](O)(COCc2ccccc2)[C@@H]2CC[C@@H](C)C[C@H]2OCc2ccccc2)cc1,"cell growth or viability, MTT","30 µM, 72 h",,inhibition,93.9%
CC(=O)[O][Pd][c]1ccccc1N1N=C(C)C(C)(C)C1=O.CC(=O)[O][Pd][c]1ccccc1N1N=C(C)C(C)(C)C1=O,annexin V/PI flow cytometry,"25 µM, 24 h",,late apoptotic cells,79.1 ± 1.28%
Cc1c(C)c2cccnc2c2ncccc12.Cc1ccc2c(Cl)cc(Cl)c([O-])c2n1.Cc1ccc2c(Cl)cc(Cl)c([O-])c2n1.[Co+2],"cell growth or viability, MTT",48 h,,IC50,5.67 µM
O=C(CCl)c1ccccc1Nc1cccc(C(F)(F)F)c1,firefly luciferase reporter,"50 µM, 6 h",relative to: vehicle,TEAD reporter activity,0.3 ± 0.1%
C=CCc1c(O)cc2c(c1O)C(=O)CC(c1ccc(O)cc1)O2 (stereo not shown),"cytotoxicity, MTT","3.202 µM, 48 h",,growth inhibition,-5.94%
CCCCCCCCCCCCNC(=S)NCCCC[C@H](NS(C)(=O)=O)C(=O)N[C@H](C)C(=O)N[C@@H](CCCNC(=N)N)C(N)=O,"cell growth or viability, MTT",72 h,,EC50,31.9 to 53.3 µM
CCC(=CCc1c(O)cc2c(c1O)C(=O)CC(c1ccccc1O)O2)CC (stereo not shown),"cytotoxicity, MTT","108.6 µM, 48 h",,growth inhibition,77.4%
CC[C@H]([C@@H](C)c1ccc(O)cc1)[C@@H](CC)c1ccc(O)cc1,"cell growth or viability, ATP luminescence",5 days,,EC50,0.0034 µM
C[C@@H]1Cc2c([nH]c3ccccc23)[C@@H](c2c(F)cc(/C=C/C(=O)O)cc2F)N1C12CC(C1)C2,"RNA-seq, measured: RAPGEFL1 mRNA","1 µM, 24 h, E2-induced gene",relative to: DMSO vehicle,log2 fold change,-1.41
COC(=O)c1cc(NC2=NC(=O)C(=Cc3ccc(N(C)C)cc3)S2)ccc1OC(C)=O,"GC-MS, measured: Myo-Inositol",1 µM,relative to: DMSO,metabolite level,0.18 fold change
CCN1C(=O)CS/C1=N/N=C(\C)c1c(O)c2ccccc2oc1=O,"cell growth, MTT",,relative to: IC50 BJ-1 over MCF7,selectivity index,> 4.13
CCCCCCCCCCCCNC(=S)NCCCC[C@H](NC(=O)OCc1ccccc1)C(=O)N[C@@H](Cc1c[nH]c2ccccc12)C(=O)NC(C)C,"cell growth or viability, MTT",72 h,,EC50,25.6 to 28.9 µM
C[C@@H]1CC[C@@H]([C@](O)(CNCc2ccc(F)cc2)COCc2ccccc2)[C@H](OCc2ccccc2)C1,"cell growth or viability, MTT","30 µM, 72 h",,inhibition,98.6%
Oc1cccc(-c2cccc(O)n2)n1.[Cl-].[Cl-].[Ru+2].c1ccc(-c2ccnc3c2ccc2c(-c4ccccc4)ccnc23)cc1.c1ccc(-c2ccnc3c2ccc2c(-c4ccccc4)ccnc23)cc1,CCK-8 viability,white light 2 h,,EC50,2 µM
COc1ccccc1CNC[C@](O)(COCc1ccccc1)[C@@H]1CC[C@@H](C)C[C@H]1OCc1ccccc1,"cell growth or viability, MTT","30 µM, 72 h",,inhibition,84.5%
COc1ccc(C2CC(=O)c3c(cc(O)c(CC=C(C)C)c3O)O2)cc1 (stereo not shown),"cytotoxicity, MTT","28.22 µM, 48 h",,growth inhibition,1.64%
COc1ccc(COC[C@](O)(CNCc2ccc(F)cc2)[C@@H]2CC[C@@H](C)C[C@H]2OCc2ccc(OC)cc2)cc1,"cell growth or viability, MTT","30 µM, 72 h",,inhibition,102%
COc1cc(/C=C/C(=O)/C=C(O)/C=C/c2ccc(OCC(=O)N3CCOCCOCCOCCOCCOCC3)c(OC)c2)ccc1OCC(=O)N1CCOCCOCCOCCOCCOCC1,"cell growth or viability, SRB",25 µM,,inhibition,98.5%

# Excerpt of the above:
SMILES,assay,setting,how to read,quantity,result
COC(=O)c1cc(NC2=NC(=O)C(=Cc3ccc(N(C)C)cc3)S2)ccc1OC(C)=O,"GC-MS, measured: Myo-Inositol",1 µM,relative to: DMSO,metabolite level,0.18 fold change
CC(=NN=c1sc(C(=O)c2ccccc2)nn1-c1ccccc1)c1ccc(S(=O)(=O)N2CCC(C)CC2)cc1,annexin V/PI,"concentration not given, 72 h, at IC50",,early apoptotic cells,5.86%
CC[C@H]([C@@H](C)c1ccc(O)cc1)[C@@H](CC)c1ccc(O)cc1,"cell growth or viability, ATP luminescence",5 days,,EC50,0.0034 µM
COc1cc(/C=C/C(=O)/C=C(O)/C=C/c2ccc(OCC(=O)N3CCOCCOCCOCCOCCOCC3)c(OC)c2)ccc1OCC(=O)N1CCOCCOCCOCCOCCOCC1,"cell growth or viability, SRB",25 µM,,inhibition,98.5%
